Assay results from different studies.
Compare with care: the assays were run in different laboratories. ± gives the spread as reported.

CN[C@](C)(C[18F])C(=O)O
tracer uptake (A549 tumour model; host not given, pancreas; 2 h, tumour-bearing): 11.2 %ID/g

O=C1C=CC(=O)c2ccccc21
IC50 (MOLT-3; cell growth or viability, XTT; 48 h): 5.12 µM

O=C(Cc1ccc2ccccc2c1)N[C@H](Cc1ccccc1)C(=O)N[C@H](Cc1ccccc1)C(=O)N[C@H](Cc1ccc(O)cc1)C(=O)N[C@H](Cc1ccc(OP(=O)(O)O)cc1)C(=O)O
IC50 (A2780cis; cell growth or viability, MTT): 189 µg/mL

CC[C@@H](C)[C@@H](NC(=O)[C@@H](CCCCN)NC(=O)[C@@H](CC(C)C)NC(=O)[C@H](N)[C@H](C)O)C(=O)N[C@@H](C(=O)N[C@H](Cc1c[nH]c2ccccc12)C(=O)N[C@H](CS)C(=O)O)C(C)C
IC50 (HEK293 tau K18 YFP biosensor; tau seeding, inhibitor; 24 h, added: Alzheimer tau fibrils): 33.5 µM

CC[C@@H](C(=O)[C@@H](C)[C@@H](O)[C@H](C)[C@@H]1O[C@@H]([C@@H](CC)C(=O)O)CC[C@@H]1C)[C@H]1O[C@]2(C=C[C@H](N)[C@]3(CC[C@@](C)([C@H]4CC[C@](O)(CC)[C@H](C)O4)O3)O2)[C@H](C)C[C@@H]1C
IC50 (HMLER CD24high/CD44low; CellTiter-Blue; 72 h): > 50 µM

O=C(N=P12CN3CN(CN(C3)C1)C2)c1cccc[c]1[Pd][Br].c1cncc(P(c2cccnc2)c2cccnc2)c1
IC50 (Jurkat; cytotoxicity, MTT; 24 h, 1% DMSO): 101 ± 20 µM

CC(C)C[C@H](NC(=O)[C@H](C)NC(=O)[C@H](CCCCN)NC(=O)[C@H](C)NC(=O)[C@H](C)NC(=O)[C@@H]1CSCc2ccc(cc2)CSC[C@H](NC(=O)[C@H](CCCCN)NC(=O)[C@H](Cc2ccccc2)NC(=O)CN)C(=O)N[C@@H](CC(C)C)C(=O)N[C@@H](CC(C)C)C(=O)N[C@@H](CCCCN)C(=O)N1)C(=O)N[C@H](C(=O)N[C@@H](CCCCN)C(=O)N[C@H](C(=O)N[C@H](C(=O)N[C@@H](CC(C)C)C(=O)N[C@@H](Cc1ccccc1)C(N)=O)C(C)C)[C@@H](C)O)C(C)C
IC50 (U87; cell proliferation, CCK-8; 48 h): 18.2 µM

CC(C)C[C@H](NC(=O)[C@H](CC(C)C)NC(=O)[C@H](Cc1c[nH]cn1)NC(=O)[C@H](CCC(=O)O)NC(=O)[C@H](CC(C)C)NC(=O)[C@H](Cc1c[nH]cn1)NC(=O)[C@H](CCC(=O)O)NC(=O)[C@H](CC(C)C)NC(=O)[C@H](CC(C)C)NC(=O)[C@H](Cc1c[nH]cn1)NC(=O)[C@H](CCC(=O)O)NC(=O)[C@@H](N)CC(C)C)C(=O)N[C@@H](CCC(=O)O)C(=O)N[C@@H](Cc1c[nH]cn1)C(N)=O
IC50 (RG; cell viability, MTT; 0.5 h, pH 6.0): > 100 µM

[Cl][Au].[Se]=c1n(C2CCCCC2)ccn1C1CCCCC1
IC50 (LoVo MDR; MTT; 72 h): 3.7 ± 0.3 µM

C=C(C)C[C@H](OC)[C@H](O)C(=O)N[C@@H](OC)[C@@H]1C[C@H](O)C(C)(C)[C@@H](C[C@H](O)[C@@H](C)[C@H]2Cc3c(C)c(O)cc(O)c3C(=O)O2)O1
IC50 (IMR-90; cell growth or viability): 0.034 µM

CC(C)C[C@H](NC(=O)[C@H](CC(C)C)NC(=O)[C@H](CCC(=O)O)NC(=O)[C@H](Cc1c[nH]cn1)NC(=O)[C@H](CC(C)C)NC(=O)[C@H](Cc1c[nH]cn1)NC(=O)[C@H](CCC(=O)O)NC(=O)[C@H](CC(C)C)NC(=O)[C@H](CC(C)C)NC(=O)[C@H](CCC(=O)O)NC(=O)[C@H](Cc1c[nH]cn1)NC(=O)[C@@H](N)CC(C)C)C(=O)N[C@@H](CCC(=O)O)C(=O)N[C@@H](Cc1c[nH]cn1)C(N)=O
IC50 (HK-2; cell growth or viability, MTT; pH 6): > 100 µM

C[C@H]1[C@H](OC(=O)CCC(=O)Oc2ccc(-c3cc(=S)ss3)cc2)O[C@@H]2O[C@@]3(C)CC[C@H]4[C@H](C)CC[C@@H]1[C@@]24OO3
IC50 (K562/Adr; cell growth or viability, CCK-8; 72 h): 16.6 µM

CCCCCCN(CCCCCC)C1=[S+][Au-]2([S]1)[c]1ccccc1-c1cccc[c]12
IC50 (BT-333 glioblastoma; MTT; 72 h): 53.7 ± 0.03 µM

CC(C)C[C@H](NC(=O)[C@H](CC(C)C)NC(=O)[C@H](CCC(=O)O)NC(=O)[C@H](CCC(=O)O)NC(=O)[C@H](CC(C)C)NC(=O)[C@H](Cc1c[nH]cn1)NC(=O)[C@H](Cc1c[nH]cn1)NC(=O)[C@H](CC(C)C)NC(=O)[C@H](CC(C)C)NC(=O)[C@H](CCC(=O)O)NC(=O)[C@H](CCC(=O)O)NC(=O)[C@@H](N)CC(C)C)C(=O)N[C@@H](Cc1c[nH]cn1)C(=O)N[C@@H](Cc1c[nH]cn1)C(N)=O
IC50 (HK-2; cell growth or viability, MTT; pH 7.4): > 100 µM

Cc1cc(C)c(-n2c[n+](-c3c(C)cc(C)cc3C)c3c2-c2cccc4cccc-3c24)c(C)c1.[Cl][Pd-]([Cl])[CH2]C=Cc1ccccc1
IC50 (C13 cisplatin-resistant; cell viability, MTT; 72 h): 2.6 ± 0.4 µM

CC(=O)O[C@H]1C[C@@H](O)[C@H]2[C@@H]3CC[C@H]4CC(=O)C=C(CO)[C@]4(C)[C@H]3CC[C@@]21C
IC50 (human PBMC; T-cell proliferation, Alamar Blue; 48 h, added: phytohemagglutinin-L 7.5 µg/mL): 10.2 ± 0.01 µg/mL

CC(C)C[C@H](NC(=O)[C@H](CCCCN)NC(=O)[C@H](CC(C)C)NC(=O)[C@H](CC(C)C)NC(=O)[C@H](CCCCN)NC(=O)[C@H](CCCCN)NC(=O)[C@H](CC(C)C)NC(=O)[C@H](CC(C)C)NC(=O)[C@H](CCCCN)NC(=O)[C@H](CC(C)C)NC(=O)[C@H](CC(C)C)NC(=O)[C@H](CCCCN)NC(=O)[C@H](CCCCN)NC(=O)[C@H](CC(C)C)NC(=O)[C@@H](N)CSSC[C@H](N)C(=O)N[C@@H](CC(C)C)C(=O)N[C@@H](CCC(=O)O)C(=O)N[C@@H](Cc1c[nH]cn1)C(=O)N[C@@H](CC(C)C)C(=O)N[C@@H](CC(C)C)C(=O)N[C@@H](CCC(=O)O)C(=O)N[C@@H](Cc1c[nH]cn1)C(=O)N[C@@H](CC(C)C)C(=O)N[C@@H](CCC(=O)O)C(=O)N[C@@H](Cc1c[nH]cn1)C(=O)N[C@@H](CC(C)C)C(=O)N[C@@H](CC(C)C)C(=O)N[C@@H](CCC(=O)O)C(=O)N[C@@H](Cc1c[nH]cn1)C(N)=O)C(N)=O
IC50 (RG; cell viability, MTT; 0.5 h, pH 7.4): > 100 µM

O=C(Cc1ccc2ccccc2c1)N[C@H](Cc1ccc(O)cc1)C(=O)N[C@H](Cc1ccccc1)C(=O)N[C@H](Cc1ccccc1)C(=O)N[C@H](Cc1ccc(O)cc1)C(=O)O
IC50 (HS5; cell growth or viability, MTT): > 500 µg/mL

NC1CC1c1ccc(NC(=O)c2cccc(NC(=O)OCc3ccccc3)c2)cc1 (centres unmarked)
IC50 (MV4-11 (AML)): 1.7 ± 0.02 µM

CCc1c2c(nc3ccc(O)cc13)-c1cc3c(c(=O)n1C2)COC(=O)[C@@]3(CC)OC(=O)[C@H](CC(C)C)NC(=O)[C@H](CCC(N)=O)NC(=O)[C@H](CC(C)C)NC(=O)[C@H](CCCCN)NC(=O)[C@H](CO)NC(=O)[C@H](CO)NC(=O)[C@H](Cc1c[nH]cn1)NC(=O)COCCOCCOCCNC(=O)CCCCC(=O)N1Cc2ccccc2-c2c(nnn2CCOCCOCCOCCOCCC(=O)N[C@@H](Cc2c[nH]cn2)C(=O)N[C@@H](CO)C(=O)N[C@@H](CO)C(=O)N[C@@H](CCCCN)C(=O)N[C@@H](CC(C)C)C(=O)N[C@@H](CCC(N)=O)C(=O)N[C@@H](CC(C)C)C(=O)O[C@@H](C(=O)O[C@H]2C[C@@]3(O)[C@@H](OC(=O)c4ccccc4)[C@@H]4[C@]5(OC(C)=O)CO[C@@H]5C[C@H](OC)[C@@]4(C)C(=O)[C@H](OC)C(=C2C)C3(C)C)[C@@H](NC(=O)OC(C)(C)C)c2ccccc2)-c2ccccc21
IC50 (LNCaP; cell growth or viability, XTT; 72 h): 0.00071 µM

COc1cc(/C=C(\C#N)C(=O)Nc2nnc(C(F)(F)F)s2)ccc1OC(=O)N1CCN(C(=O)CCCC(=O)NCCCC[C@@H]2NC(=O)[C@@H](Cc3ccc(O)cc3)NC(=O)[C@H](CC(=O)O)NC(=O)CNC(=O)[C@H](CCCNC(=N)N)NC2=O)CC1
IC50 (U87; cytotoxicity, MTT; 48 h): 78 ± 1.3 µM

C[C@H]1[C@H](OC(=O)CCC(=O)OCCc2ccc(O)cc2)O[C@@H]2O[C@@]3(C)CC[C@H]4[C@H](C)CC[C@@H]1[C@@]24OO3
IC50 (RPMI-7951; cell viability, MTT; 24 h, without deferoxamine): 0.09 ± 0.05 µM

CC(C)C[C@H](NC(=O)[C@H](CCCCN)NC(=O)[C@H](CC(C)C)NC(=O)[C@H](CC(C)C)NC(=O)[C@H](CCCCN)NC(=O)[C@H](CCCCN)NC(=O)[C@H](CC(C)C)NC(=O)[C@H](CC(C)C)NC(=O)[C@H](CCCCN)NC(=O)[C@H](CC(C)C)NC(=O)[C@H](CC(C)C)NC(=O)[C@H](CCCCN)NC(=O)[C@H](CCCCN)NC(=O)[C@H](CC(C)C)NC(=O)[C@@H](N)CSSC[C@H](N)C(=O)N[C@@H](CC(C)C)C(=O)N[C@@H](Cc1c[nH]cn1)C(=O)N[C@@H](CCC(=O)O)C(=O)N[C@@H](CC(C)C)C(=O)N[C@@H](CC(C)C)C(=O)N[C@@H](CCC(=O)O)C(=O)N[C@@H](Cc1c[nH]cn1)C(=O)N[C@@H](CC(C)C)C(=O)N[C@@H](Cc1c[nH]cn1)C(=O)N[C@@H](CCC(=O)O)C(=O)N[C@@H](CC(C)C)C(=O)N[C@@H](CC(C)C)C(=O)N[C@@H](CCC(=O)O)C(=O)N[C@@H](Cc1c[nH]cn1)C(N)=O)C(N)=O
IC50 (HK-2; cell growth or viability, MTT; pH 6): 11.7 µM

Cc1cc(C)c(N2CCN(c3c(C)cc(C)cc3C)C2=[Se])c(C)c1.[Cl][Ag]
IC50 (A2780; cell growth or viability, MTT; 72 h): 0.7 µM

Cc1cc(Nc2nc(C[C@@]3(C(=O)O)CCN(Cc4cccc(Cl)c4F)[C@H](C)C3)cc(C)c2F)[nH]n1
IC50 (sensitive breast cancer lines; cell proliferation; mean): 0.0504 µM

C=C(C)CC(OC)C(O)C(=O)NC(OC)C1CC(=C)C(C)(C)C(CC(O)C(C)C2Cc3c(C)c(O)cc(O)c3C(=O)O2)O1 (single isomer, unassigned; (+))
IC50 (A2058; cell growth or viability): 0.0007 µM

C[C@H]1C(OCCCCCCC[P+](c2ccccc2)(c2ccccc2)c2ccccc2)O[C@@H]2O[C@@]3(C)CCC4[C@H](C)CCC1[C@]42OO3 (some centres unmarked)
IC50 (SK-OV-3; cell growth or viability, MTT; 72 h): 0.098 µM

Cc1cc(C)c(-n2ccn(-c3c(C)cc(C)cc3C)c2=[Se])c(C)c1.[Cl][Au]
IC50 (LoVo MDR; MTT; 72 h): 3.2 ± 0.5 µM

O=C(O)c1ccc([PH]([Au][Cl])(c2ccccc2)c2ccccc2)cc1
IC50 (IMR-90; cell growth or viability, resazurin; 72 h): 22.8 µM
